# Literature values, collected from citations in different studies.
# ± marks the error that the study gave.
# Chain of UniProt Q9UKI8 (whole entry, looked up): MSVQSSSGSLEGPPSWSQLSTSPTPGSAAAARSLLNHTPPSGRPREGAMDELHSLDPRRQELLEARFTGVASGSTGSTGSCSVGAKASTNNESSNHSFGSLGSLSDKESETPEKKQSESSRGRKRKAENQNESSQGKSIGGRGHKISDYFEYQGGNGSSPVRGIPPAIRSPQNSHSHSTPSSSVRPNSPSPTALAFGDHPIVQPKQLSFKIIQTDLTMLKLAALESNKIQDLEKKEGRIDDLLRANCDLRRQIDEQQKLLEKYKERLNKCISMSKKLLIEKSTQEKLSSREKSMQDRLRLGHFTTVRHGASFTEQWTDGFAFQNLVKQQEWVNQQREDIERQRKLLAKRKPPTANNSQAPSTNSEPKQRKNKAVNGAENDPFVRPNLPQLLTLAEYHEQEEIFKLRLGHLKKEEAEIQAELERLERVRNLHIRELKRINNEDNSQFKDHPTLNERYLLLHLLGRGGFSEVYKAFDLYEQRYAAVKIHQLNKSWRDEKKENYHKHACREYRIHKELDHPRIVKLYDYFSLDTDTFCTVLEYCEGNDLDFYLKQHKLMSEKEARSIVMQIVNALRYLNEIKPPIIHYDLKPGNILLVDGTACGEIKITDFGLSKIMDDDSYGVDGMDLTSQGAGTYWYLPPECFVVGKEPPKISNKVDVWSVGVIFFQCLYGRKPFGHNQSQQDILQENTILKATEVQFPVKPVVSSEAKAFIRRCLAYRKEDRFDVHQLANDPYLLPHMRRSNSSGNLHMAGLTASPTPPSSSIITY
SMILES,tested on,test,test system,conditions,how to read,endpoint,result
O=C(O)Cc1ccccc1Nc1c(Cl)cccc1Cl,primary human hepatocyte spheroids,cell viability,,3 days,,IC50,191 µM
CO[C@H]1C[C@@H]2CC[C@@H](C)[C@@](O)(O2)C(=O)C(=O)N2CCCC[C@H]2C(=O)O[C@H]([C@H](C)C[C@@H]2CC[C@@H](O)[C@H](OC)C2)CC(=O)[C@H](C)/C=C(\C)[C@@H](O)[C@@H](OC)C(=O)[C@H](C)C[C@H](C)/C=C/C=C/C=C/1C,T98G,,,,,IC50,0.05 µM
c1ccc2c(c1)CCNC2c1c[nH]c2ccccc12 (stereo not drawn),MRC-5 fibroblasts,cytotoxicity,,,,IC50,> 100 µM
CC(C)(C)c1nc(-c2cccc(NS(=O)(=O)c3c(F)cccc3F)c2F)c(-c2ccnc(N)n2)s1,A 172,,,,,IC50,52.1 µM
Cc1cc(=O)c(-c2ccc(Oc3ccc(C(F)(F)F)cc3)cc2)c(C)n1O,Plasmodium falciparum,whole cell extended time,3D7,72 h,,IC50,0.6 µM
CC(F)(F)c1cc(F)ccc1-c1sc2cc(O)ccc2c1Oc1ccc(/C=C/C(=O)O)cc1,MCF7,"ER-mediated transcription, inhibitor",,,,IC50,0.006 µM
Nc1cccc2c1C(=O)N(C1CCC(=O)NC1=O)C2=O (stereo not drawn),human whole blood,,,added: LPS stimulation,,IC50,0.025 µM
CNC(C)C1CCC(N)C(OC2C(N)CC(N)C(OC3OCC(C)(O)C(NC)C3O)C2O)O1 (stereo not drawn),Pseudomonas aeruginosa,,clinical isolate RKI-No_347/12,,,MIC,> 8 µg/mL
O=c1ncccn1[C@@H]1O[C@H](CO)[C@@H](O)[C@H]1O,A2780/CP cisplatin-resistant,,,,,IC50,152 µM
Cc1c(C#N)cccc1[C@@H](C)Nc1nnc(C)c2cnc(N3CCOCC3)cc12,HCC1438,"cell viability, 3D CellTiter-Glo",,14 days,,IC50,0.176 ± 0.141 µM
COc1ccc(Oc2ccc(-c3c(C)[nH]c(C)c(Cl)c3=O)cc2)cc1,Plasmodium falciparum,whole cell extended time,3D7,72 h,,IC50,0.14 µM
CC(=O)c1c(C)c2cnc(Nc3ccc(N4CCNCC4)cn3)nc2n(C2CCCC2)c1=O,A 172,,,,,IC50,18.8 µM
Cc1[nH]c2ccccc2c1CCNCc1ccc(/C=C/C(=O)NO)cc1,neonatal foreskin fibroblasts,cell growth,,,,IC50,0.07 ± 0.01 µM
O=c1c(-c2ccc(O)cc2)coc2cc(O)cc(O)c12,NIH3T3,mitogenic effect,,added: EGF,,IC50,12 µM
C=CC(=O)Nc1cc(Nc2nccc(-c3cn(C)c4ccccc34)n2)c(OC)cc1N(C)CCN(C)C,T98G,,,,,IC50,12.3 µM
O=c1[nH]cc(F)c(=O)[nH]1,HeLa,,,,,IC50,619 µM
CN(CCOc1ccc(CC2SC(=O)NC2=O)cc1)c1ccccn1 (stereo not drawn),3T3-L1 adipocytes,,,,,IC50,0.004 µM
Nc1cc(C(F)(F)F)c(-c2cc(N3CCOCC3)nc(N3CCOCC3)n2)cn1,T98G,,,,,IC50,3.25 µM
C[C@H]1COCCN1c1nc(-c2cnc(N)cc2C(F)F)nc(N2CCOCC2)n1,MG-63,,,,,GI50,0.241 µM
CNC(=O)c1cc(Oc2ccc(NC(=O)Nc3ccc(Cl)c(C(F)(F)F)c3)cc2)ccn1,A 172,,,,,IC50,7.22 µM
Nc1cc(C(F)(F)F)c(-c2nc(N3CCOCC3)nc(N3CCOCC3)n2)cn1,"Serine/threonine-protein kinase tousled-like 1 (TLK1, Homo sapiens, UniProt Q9UKI8)",enzyme activity,,10 µM,baseline: untreated,remaining activity,93%
Nc1nc(Cl)nc2c1ncn2[C@H]1C[C@H](O)[C@@H](CO)O1,RPMI-8226,,,,,IC50,~0.75 µM
CC1(C)S[C@@H]2[C@H](NC(=O)[C@H](N)c3ccccc3)C(=O)N2[C@H]1C(=O)O,Pseudomonas aeruginosa,,clinical isolate RKI-No_21/12,,,MIC,> 16 µg/mL
N=C(N)c1ccc(Nc2ccc(-c3cc4ccc(C(=N)N)cc4[nH]3)cc2)cc1,MEG-01,cell proliferation,,,,IC50,1.03 µM

# Repeated from above:
SMILES,tested on,test,test system,conditions,how to read,endpoint,result
CC(=O)c1c(C)c2cnc(Nc3ccc(N4CCNCC4)cn3)nc2n(C2CCCC2)c1=O,A 172,,,,,IC50,18.8 µM
Cc1[nH]c2ccccc2c1CCNCc1ccc(/C=C/C(=O)NO)cc1,neonatal foreskin fibroblasts,cell growth,,,,IC50,0.07 ± 0.01 µM
